Results gathered from unrelated publications.
“And” joins repeats or separate records; there may be more than shown.
Target: Dual specificity protein kinase TTK (TTK, Homo sapiens, UniProt P33981)
One construct used (P33981 1-857): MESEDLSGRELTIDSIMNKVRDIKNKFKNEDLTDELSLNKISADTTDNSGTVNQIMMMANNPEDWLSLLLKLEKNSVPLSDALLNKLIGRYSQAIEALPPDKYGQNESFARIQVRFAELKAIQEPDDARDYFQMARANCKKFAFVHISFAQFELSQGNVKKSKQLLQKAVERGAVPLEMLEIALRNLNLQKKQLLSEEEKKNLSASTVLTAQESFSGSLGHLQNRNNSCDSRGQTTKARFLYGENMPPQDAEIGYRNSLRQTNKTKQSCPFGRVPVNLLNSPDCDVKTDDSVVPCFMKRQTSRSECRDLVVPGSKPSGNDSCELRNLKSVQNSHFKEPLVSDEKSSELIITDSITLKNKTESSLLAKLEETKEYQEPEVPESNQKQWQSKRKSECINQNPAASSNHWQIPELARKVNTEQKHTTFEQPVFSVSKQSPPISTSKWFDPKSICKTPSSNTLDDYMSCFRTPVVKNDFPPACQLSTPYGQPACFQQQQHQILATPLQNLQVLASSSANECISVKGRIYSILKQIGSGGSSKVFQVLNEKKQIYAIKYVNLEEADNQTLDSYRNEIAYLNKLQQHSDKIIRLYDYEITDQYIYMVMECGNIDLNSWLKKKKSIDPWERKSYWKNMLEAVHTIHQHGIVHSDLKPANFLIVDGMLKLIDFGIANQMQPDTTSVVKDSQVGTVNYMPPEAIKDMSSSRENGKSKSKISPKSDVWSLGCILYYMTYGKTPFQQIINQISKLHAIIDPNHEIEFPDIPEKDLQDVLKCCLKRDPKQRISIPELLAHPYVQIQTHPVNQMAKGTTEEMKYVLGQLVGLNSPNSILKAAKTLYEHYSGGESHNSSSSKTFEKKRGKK

COc1cc(Nc2nc(C)cc(-c3cnn4nc(OC)ccc34)n2)cc(C(F)(F)F)c1 — remaining binding (binding, competition with immobilised ligand; 1 µM): 90%
C=CC(=O)Nc1cccc(-c2cnc3[nH]cc(C(=O)NC(C)(C)C)c3n2)c1 — inhibition (kinase activity; 0.1 µM): 0% and -1%
c1ccc2c(Nc3cc(C4CCC4)[nH]n3)nc(Nc3ccc4nc[nH]c4c3)nc2c1 — remaining activity (enzyme activity, inhibitor; 0.25 µM): 40%
CNC1C[S+]2CC[S+]3CC[S+](C1)[Ru-4]321([N]=C=S)[n]2c3ccc(OC)cc3c3c4c(c5cc(F)c[n+]1c5c32)C(=O)NC4=O (stereo not shown) — remaining binding (KinomeScan; 0.1 µM; baseline: untreated): 49%
CCn1cc(C(=O)O)c(=O)c2c(N)c(F)c(NC3CCCCC3)cc21 — inhibition (kinase activity; 0.1 µM, added: ATP at Km): 18.5%
C=CC(=O)N1CCCC(n2c(=O)c3ncccc3n(Cc3ccc(Oc4ccccc4)cc3)c2=O)C1 (stereo not shown) — remaining binding (cell-free assay, competition with immobilised ligand; 1 µM): 99%
CCN1CCN(Cc2ccc(C(=O)Nc3ccc(C)c(NCc4cnc5[nH]ccc5c4OC)c3)cc2C(F)(F)F)CC1 — remaining binding (binding, competition with immobilised ligand; 1 µM): 78%
Cc1ccc(C(=O)Nc2ccc(CN3CCN(C)CC3)c(C(F)(F)F)c2)cc1C#Cc1cnc2cccnn12 — upper asymptote (target engagement, NanoBRET; human cells): 520
O=C(Cc1ccc(OCc2ccccc2)cc1)NC1(C(=O)O)CCN(C(=O)c2ccc(-c3cccc(Cl)c3)cc2)CC1 — activity vs control (enzyme activity, inhibitor; 10 µM): 96%
CNC(=O)C[C@H](Cc1ccc(C#N)cc1)NC(=O)c1cc(-c2ccc(CN[C@H](C)c3ccc(C)cc3)o2)ccc1Cl — activity vs control (enzyme activity, inhibitor; 1 µM): 108%
COC(=O)[C@@]1(C)C=C(C(=O)Nc2cccc(C(=O)Nc3ccc(Nc4nccc(-c5cccnc5)n4)c(C)c3)c2)C(=O)CC1 — remaining activity (enzyme activity, inhibitor, radiometric; 1 µM): 77%
Cc1cccc(O[C@H]2CCC[C@@H](C(C)CNCc3ccncc3)C2)c1 (relative stereo) — inhibition (enzyme activity, inhibitor; 1 µM): -2%
CN1C[C@@H](c2c[nH]c3cc(Br)ccc23)NC[C@@H]1c1c[nH]c2cc(Br)ccc12 — remaining activity (enzyme activity, inhibitor; 10 µM): 102%
CC(C)=CC1OC(C)(C)C2C=C3C(=O)C(Cl)=CC(O)C3C3C(O)C4OC4C(=O)C132 (stereo not shown) — remaining binding (cell-free assay, competition with immobilised ligand; 10 µM): 88%
CN1CCN(Cc2ccc(-c3ccc(CO[C@H]4CCC[C@@H]4NC(=O)c4cc(-c5cnn(C)c5)cnc4N)cc3)cc2)CC1 — inhibition (enzyme activity, inhibitor; 0.1 µM): 8%
NC(=O)C[C@H]1CCc2sc3ncnc(O[C@H]4CC[C@H](N5CCOCC5)CC4)c3c21 — inhibition (enzyme activity, inhibitor; 10 µM): -10%

For quick reference, copied from above:
CN1CCN(Cc2ccc(-c3ccc(CO[C@H]4CCC[C@@H]4NC(=O)c4cc(-c5cnn(C)c5)cnc4N)cc3)cc2)CC1 — inhibition (enzyme activity, inhibitor; 0.1 µM): 8%
NC(=O)C[C@H]1CCc2sc3ncnc(O[C@H]4CC[C@H](N5CCOCC5)CC4)c3c21 — inhibition (enzyme activity, inhibitor; 10 µM): -10%
